Experimental data collected from several papers.
“And” joins repeats or separate records; there may be more than shown. Numbers after ± are the reported error.
Trypanothione synthetase: Trypanothione synthetase (Trypanosoma brucei brucei, UniProt Q586P2)
Palmitoyl-protein thioesterase 1: Palmitoyl-protein thioesterase 1 (Homo sapiens, UniProt P50897)
Chain of UniProt P50897 (whole entry, looked up): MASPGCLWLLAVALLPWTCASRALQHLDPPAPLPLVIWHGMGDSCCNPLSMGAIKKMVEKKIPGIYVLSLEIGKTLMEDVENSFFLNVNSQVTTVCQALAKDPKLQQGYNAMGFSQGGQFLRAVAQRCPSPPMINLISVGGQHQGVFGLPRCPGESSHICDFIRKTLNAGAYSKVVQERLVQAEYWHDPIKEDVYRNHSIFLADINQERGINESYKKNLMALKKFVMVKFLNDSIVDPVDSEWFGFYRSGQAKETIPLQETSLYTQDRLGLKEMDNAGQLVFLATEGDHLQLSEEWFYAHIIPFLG
plsY: Glycerol-3-phosphate acyltransferase (plsY, Streptococcus pneumoniae, UniProt P0A4Q0)
Chain of UniProt P49674 (whole entry, looked up): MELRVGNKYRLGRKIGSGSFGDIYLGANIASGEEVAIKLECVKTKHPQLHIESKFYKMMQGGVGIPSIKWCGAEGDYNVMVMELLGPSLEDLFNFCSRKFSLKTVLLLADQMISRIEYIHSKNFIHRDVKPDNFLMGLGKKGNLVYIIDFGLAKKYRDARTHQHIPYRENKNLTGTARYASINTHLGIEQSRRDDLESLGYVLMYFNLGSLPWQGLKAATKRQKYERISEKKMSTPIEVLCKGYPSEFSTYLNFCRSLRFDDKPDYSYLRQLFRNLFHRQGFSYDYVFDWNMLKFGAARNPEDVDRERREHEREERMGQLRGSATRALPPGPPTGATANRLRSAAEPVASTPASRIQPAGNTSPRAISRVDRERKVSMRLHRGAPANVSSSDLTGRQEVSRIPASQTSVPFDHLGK
Chain of UniProt P11541 (whole entry, looked up): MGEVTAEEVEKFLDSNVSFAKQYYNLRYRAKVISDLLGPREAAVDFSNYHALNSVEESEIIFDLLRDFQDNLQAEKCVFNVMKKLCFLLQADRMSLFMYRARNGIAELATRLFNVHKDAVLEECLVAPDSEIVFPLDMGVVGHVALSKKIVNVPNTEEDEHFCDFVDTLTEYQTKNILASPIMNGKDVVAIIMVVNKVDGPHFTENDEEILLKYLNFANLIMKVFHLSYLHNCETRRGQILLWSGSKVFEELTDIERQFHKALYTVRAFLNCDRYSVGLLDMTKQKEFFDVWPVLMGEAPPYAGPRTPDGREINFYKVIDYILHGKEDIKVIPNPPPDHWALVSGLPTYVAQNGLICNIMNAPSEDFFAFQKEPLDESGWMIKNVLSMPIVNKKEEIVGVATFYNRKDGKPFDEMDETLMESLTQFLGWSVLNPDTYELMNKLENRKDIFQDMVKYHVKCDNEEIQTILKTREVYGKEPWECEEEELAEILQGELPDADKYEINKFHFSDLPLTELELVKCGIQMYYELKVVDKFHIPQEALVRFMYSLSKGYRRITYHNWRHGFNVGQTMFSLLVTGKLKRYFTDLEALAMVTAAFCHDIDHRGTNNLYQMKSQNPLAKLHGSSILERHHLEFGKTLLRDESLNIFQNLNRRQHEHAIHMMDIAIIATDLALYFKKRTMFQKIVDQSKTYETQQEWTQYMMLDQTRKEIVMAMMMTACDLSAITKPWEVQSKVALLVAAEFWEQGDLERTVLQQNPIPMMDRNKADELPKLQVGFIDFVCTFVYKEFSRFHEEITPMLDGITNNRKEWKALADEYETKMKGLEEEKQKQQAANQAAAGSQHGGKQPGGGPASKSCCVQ
Chain of UniProt Q14416 (whole entry, looked up): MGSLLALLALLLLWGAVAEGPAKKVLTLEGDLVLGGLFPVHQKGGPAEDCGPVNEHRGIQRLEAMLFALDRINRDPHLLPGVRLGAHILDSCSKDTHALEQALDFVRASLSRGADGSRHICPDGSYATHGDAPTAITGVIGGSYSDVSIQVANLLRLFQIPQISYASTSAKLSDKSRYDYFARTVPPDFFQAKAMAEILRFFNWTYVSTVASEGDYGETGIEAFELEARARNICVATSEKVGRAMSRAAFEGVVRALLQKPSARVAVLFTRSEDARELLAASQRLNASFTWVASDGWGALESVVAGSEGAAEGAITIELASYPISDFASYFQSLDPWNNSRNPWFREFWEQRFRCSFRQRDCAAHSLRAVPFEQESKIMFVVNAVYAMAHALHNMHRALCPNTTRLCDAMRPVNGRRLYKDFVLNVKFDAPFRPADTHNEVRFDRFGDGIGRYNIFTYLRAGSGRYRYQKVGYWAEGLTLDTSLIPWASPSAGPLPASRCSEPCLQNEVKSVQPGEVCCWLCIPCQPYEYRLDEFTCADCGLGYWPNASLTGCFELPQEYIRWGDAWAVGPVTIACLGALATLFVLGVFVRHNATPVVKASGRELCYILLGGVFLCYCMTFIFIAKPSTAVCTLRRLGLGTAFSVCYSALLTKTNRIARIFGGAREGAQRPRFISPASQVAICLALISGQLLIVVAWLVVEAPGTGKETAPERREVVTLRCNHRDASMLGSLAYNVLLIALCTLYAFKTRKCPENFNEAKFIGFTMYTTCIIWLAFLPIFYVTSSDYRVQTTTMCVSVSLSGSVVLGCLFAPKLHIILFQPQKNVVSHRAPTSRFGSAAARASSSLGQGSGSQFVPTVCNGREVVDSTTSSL
Chain of UniProt Q9Y5S2 (whole entry, looked up): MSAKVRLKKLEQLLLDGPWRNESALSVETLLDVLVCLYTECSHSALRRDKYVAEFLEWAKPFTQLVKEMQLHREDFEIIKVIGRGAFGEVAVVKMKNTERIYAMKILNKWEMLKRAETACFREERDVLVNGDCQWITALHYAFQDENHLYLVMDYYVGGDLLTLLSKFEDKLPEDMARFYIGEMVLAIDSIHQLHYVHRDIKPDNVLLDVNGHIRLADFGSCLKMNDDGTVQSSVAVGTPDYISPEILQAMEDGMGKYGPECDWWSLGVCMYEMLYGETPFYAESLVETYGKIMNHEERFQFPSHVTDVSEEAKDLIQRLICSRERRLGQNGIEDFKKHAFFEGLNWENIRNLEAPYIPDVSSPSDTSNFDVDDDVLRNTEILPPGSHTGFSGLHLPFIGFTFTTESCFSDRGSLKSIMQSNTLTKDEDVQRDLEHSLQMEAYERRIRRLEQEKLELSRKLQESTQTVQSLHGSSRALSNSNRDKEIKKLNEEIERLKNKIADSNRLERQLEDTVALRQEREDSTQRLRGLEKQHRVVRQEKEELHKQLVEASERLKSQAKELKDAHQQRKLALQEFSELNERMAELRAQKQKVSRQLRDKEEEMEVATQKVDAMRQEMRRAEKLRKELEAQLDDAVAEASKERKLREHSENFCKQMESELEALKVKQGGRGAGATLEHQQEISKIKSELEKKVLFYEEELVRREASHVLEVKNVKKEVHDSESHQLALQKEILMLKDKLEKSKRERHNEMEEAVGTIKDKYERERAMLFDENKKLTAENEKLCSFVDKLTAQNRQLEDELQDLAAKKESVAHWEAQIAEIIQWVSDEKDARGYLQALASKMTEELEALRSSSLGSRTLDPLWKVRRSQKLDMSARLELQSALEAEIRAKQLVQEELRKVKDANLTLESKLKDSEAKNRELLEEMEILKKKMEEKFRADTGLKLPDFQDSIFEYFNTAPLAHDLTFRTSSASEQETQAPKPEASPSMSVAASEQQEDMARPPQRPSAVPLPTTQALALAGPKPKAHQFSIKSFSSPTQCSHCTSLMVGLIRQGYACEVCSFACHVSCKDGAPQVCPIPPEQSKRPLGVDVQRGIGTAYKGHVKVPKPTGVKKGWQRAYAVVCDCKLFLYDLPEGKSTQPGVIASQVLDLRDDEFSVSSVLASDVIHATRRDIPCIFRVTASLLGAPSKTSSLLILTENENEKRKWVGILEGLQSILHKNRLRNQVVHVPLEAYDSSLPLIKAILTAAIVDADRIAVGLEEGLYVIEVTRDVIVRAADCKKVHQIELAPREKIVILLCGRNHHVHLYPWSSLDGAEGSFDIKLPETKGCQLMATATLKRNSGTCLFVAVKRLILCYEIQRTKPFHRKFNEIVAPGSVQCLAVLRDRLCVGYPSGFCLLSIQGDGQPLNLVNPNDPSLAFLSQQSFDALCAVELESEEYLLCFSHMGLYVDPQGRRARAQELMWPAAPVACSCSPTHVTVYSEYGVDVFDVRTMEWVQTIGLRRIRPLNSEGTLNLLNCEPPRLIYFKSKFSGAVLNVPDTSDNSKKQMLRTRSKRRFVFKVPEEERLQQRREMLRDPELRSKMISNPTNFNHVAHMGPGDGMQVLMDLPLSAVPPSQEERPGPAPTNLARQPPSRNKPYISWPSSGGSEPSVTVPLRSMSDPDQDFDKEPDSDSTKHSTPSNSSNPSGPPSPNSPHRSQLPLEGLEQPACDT
Chain of UniProt P08588 (whole entry, looked up): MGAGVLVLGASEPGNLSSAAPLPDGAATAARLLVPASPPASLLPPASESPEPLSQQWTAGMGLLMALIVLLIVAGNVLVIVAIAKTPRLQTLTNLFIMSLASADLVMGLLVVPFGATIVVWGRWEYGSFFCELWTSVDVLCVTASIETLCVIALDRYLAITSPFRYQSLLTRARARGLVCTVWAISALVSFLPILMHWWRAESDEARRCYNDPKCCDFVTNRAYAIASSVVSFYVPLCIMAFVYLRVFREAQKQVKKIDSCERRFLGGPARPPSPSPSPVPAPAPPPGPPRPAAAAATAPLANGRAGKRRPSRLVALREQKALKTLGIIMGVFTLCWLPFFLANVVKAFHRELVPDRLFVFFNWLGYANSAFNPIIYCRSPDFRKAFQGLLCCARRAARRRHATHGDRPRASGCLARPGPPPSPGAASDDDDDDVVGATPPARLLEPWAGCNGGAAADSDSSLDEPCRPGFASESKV
Chain of UniProt P08908 (whole entry, looked up): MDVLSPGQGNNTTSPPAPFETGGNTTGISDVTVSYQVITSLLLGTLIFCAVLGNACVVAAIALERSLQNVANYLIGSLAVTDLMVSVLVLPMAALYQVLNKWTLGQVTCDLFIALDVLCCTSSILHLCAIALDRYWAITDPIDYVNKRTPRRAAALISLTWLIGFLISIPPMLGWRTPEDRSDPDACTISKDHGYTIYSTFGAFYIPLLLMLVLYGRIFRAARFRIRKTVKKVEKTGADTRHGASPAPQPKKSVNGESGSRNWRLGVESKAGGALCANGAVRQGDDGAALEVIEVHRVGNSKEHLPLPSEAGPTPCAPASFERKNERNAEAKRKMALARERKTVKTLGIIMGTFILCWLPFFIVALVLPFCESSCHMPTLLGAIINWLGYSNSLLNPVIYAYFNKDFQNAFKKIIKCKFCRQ

Compound	target	test	system	setting	how to read	inhibition
Cc1ccc2c(CC(=O)N3CCC(C(N)=O)C3)coc2c1C (centres unmarked)	Trypanothione synthetase	enzyme activity, BIOMOL Green phosphate release		25 µM		37.1 ± 13.9%
O=C(Nc1cnccc1Cl)N1CCN(Cc2ccc3c(c2)OC(F)(F)O3)CC1	Vasopressin V1b receptor (AVPR1B, Homo sapiens, UniProt P47901)	binding		50 µM, together with: [3H][Arg8]vasopressin		5%
Cc1c2oc3c(C)ccc(C(=O)N[C@@H]4C(=O)N[C@H](C(C)C)C(=O)N5CCC[C@H]5C(=O)N(C)CC(=O)N(C)[C@@H](C(C)C)C(=O)O[C@@H]4C)c3nc-2c(C(=O)N[C@@H]2C(=O)N[C@H](C(C)C)C(=O)N3CCC[C@H]3C(=O)N(C)CC(=O)N(C)[C@@H](C(C)C)C(=O)O[C@@H]2C)c(N)c1=O	Palmitoyl-protein thioesterase 1	Spectrum Collection screen		concentration not given, together with: substrate 20 µM		63.8%
COc1cc2c(NC3CCN(C)CC3)cc(-c3ccc(C)o3)nc2cc1OCCCN1CCCC1	DNA (cytosine-5)-methyltransferase 1 (DNMT1, Homo sapiens, UniProt P26358)	enzyme activity		33330 nM		97.1%
O=C(CCCCC1CCCCC1)CP(=O)(O)O	plsY	inhibitor		200 µM		9%
CN(C(=O)n1cnc(-c2ccc[n+]([O-])c2)c1)C1CCCCC1	Metabotropic glutamate receptor 2 (GRM2, Homo sapiens, UniProt Q14416)	radioligand binding		50 µM, together with: [3H]LY341495		2%
O=C(N1CCC2(CC1)C[C@H](CN1CCCCS1(=O)=O)CCO2)C1(c2ccccc2)CCCC1	DHX58 (Homo sapiens, UniProt Q96C10)	ATPase activity, inhibitor		50 µM		0%
FC(F)(F)c1cccc(Nc2nc(NCCOc3ccccc3)nc3[nH]cnc23)c1	Casein kinase I isoform epsilon (CSNK1E, Homo sapiens, UniProt P49674)	enzyme activity, inhibitor, Thermo Fisher kinase screening		5 µM		20% and 18%
COCc1c(-c2cc3cc(C)cc(OC)c3s2)c2c(N)ncnn2c1CN1CCNC(=O)C1	adenosine transporter	radioligand binding		10 µM		41%
C[C@H](C(=O)N[C@H]1COc2ccccc2[C@@H]1S(C)(=O)=O)c1ccc(F)cc1	PDE6A/PDE6B (Bos taurus, UniProt P11541+P23439)	enzyme activity		10 µM, Eurofins selectivity panel		-6%
CCC(C)c1ccccc1OCC(=O)N1CCC(C(=O)Nc2ccc3c(c2)OCO3)CC1 (centres unmarked)	Trypanothione synthetase	enzyme activity, BIOMOL Green phosphate release		25 µM		37.1 ± 4.7%
CN(CCN1CCC(OC(=O)Nc2ccccc2-c2ccccc2)CC1)C(=O)c1ccc(CN2CCC(C(N)=O)CC2)cc1	phosphodiesterase IV, human	enzyme activity		1 µM		-4%
O=C(Nc1cccnn1)N1CCN([C@@H]2CCOc3cc(C(F)(F)F)ccc32)CC1	catechol-O-methyltransferase	enzyme activity		20 µM		3%
CC(C)N1CCC[C@H]1CNC(=O)c1cn(C2CCCC2)c(=O)c2c1c1ccccc1n2C	Epidermal growth factor receptor (EGFR, Homo sapiens, UniProt P00533)	radioligand binding		10 µM		11%
O=c1ccc2ccccc2o1	voltage-gated potassium channel	radioligand binding, antagonist		10 µM		2.24%
Cc1ncc(C)n2nc(/C=C/c3nc(N4CCCC4)cc(N4CCOCC4)n3)nc12	sigma receptor non-selective	radioligand binding		10 µM		-33%

Compound	target	test	system	setting	how to read	inhibition
Cn1cccc1-c1cccnc1	Beta-1 adrenergic receptor (ADRB1, Homo sapiens, UniProt P08588)	binding		50 µM		17.9%
O=C(Nc1cccnn1)N1CCC(=Cc2cccc(Oc3ccc(C(F)(F)F)cn3)c2)CC1	Monoacylglycerol lipase ABHD6 (Abhd6, Rattus norvegicus, UniProt Q5XI64)	probe labelling, inhibitor, competitive ABPP with azido-FP probe, item: ABHD6	rat brain membrane fraction	0.1 µM		6.2%
Cc1[nH]ncc1S(=O)(=O)NCc1cccc(-n2cccn2)c1	Trypanothione synthetase	enzyme activity, BIOMOL Green phosphate release		25 µM		40 ± 5.8%
CCCCCCCC(=O)CP(=O)(O)O	plsY	inhibitor		200 µM		0%
CN1CCN(c2cc(-c3ccncc3)c(-c3ccc4ccccc4c3)nn2)CC1	CX3C chemokine receptor 1 (CX3CR1, Homo sapiens, UniProt P49238)	antagonist, FLIPR		10 µM		9.3%
CC(C)(C)C(O)(CCc1ccc(Cl)cc1)Cn1cncn1 (centres unmarked)	Palmitoyl-protein thioesterase 1	Spectrum Collection screen		concentration not given, together with: substrate 20 µM		69%
CCc1cc(=O)[nH]c(-n2nc(C)cc2NC(=O)c2ccc(C)c(C)c2)n1	Tyrosine-protein kinase Lck (LCK, Homo sapiens, UniProt P06239)	radiometric kinase		10 µM		no inhibition
COC(=O)c1ccc(OP(=O)(Oc2ccc(C(=O)OC)cc2)C(CCc2c[nH]c3ccccc23)NC(=O)OCc2ccccc2)cc1 (racemic)	Structural polyprotein, capsid protease (O'nyong-nyong virus, UniProt P22056)	protease activity, irreversible covalent inhibitor		100 µM, 30 °C, CP Δ2 construct, 1% DMSO, together with: H-Gly-Glu-Ser-Glu-Val-Trp-ACC, 50 µM		70.3 ± 0.6%
CN1CCN(c2nc(N)c3ccccc3n2)CC1	5-hydroxytryptamine receptor 1A (HTR1A, Homo sapiens, UniProt P08908)	radioligand binding, radioligand competition binding		0.1 µM, first replicate	reference: control specific binding	11.9%
O=C(Nc1ccncc1)C1CCN(C(=O)Cc2c[nH]c3ccccc23)CC1	Trypanothione synthetase	enzyme activity, BIOMOL Green phosphate release		25 µM		12.7 ± 9.8%
CCCCCCCCCCCC(=O)CP(=O)(O)O	plsY	inhibitor		200 µM		38%
CN(Cc1ccccc1Br)C(=O)c1ccccc1C(=O)c1ccccc1	Trypanothione synthetase	enzyme activity, BIOMOL Green phosphate release		25 µM		35.8 ± 3.9%
CCCCCCCC/C=C\CCCCCCCCNC(=O)CP(=O)(O)O	plsY	inhibitor		200 µM		49%
COc1cc(Nc2ncc(F)c(Nc3ccc4c(n3)NC(=O)C(C)(C)O4)n2)cc(OC)c1OC	Serine/threonine-protein kinase MRCK beta (CDC42BPB, Homo sapiens, UniProt Q9Y5S2)	KINOMEscan		10 µM, MRCKB		0%
CCCCCCCCCCCCCCCC(=O)C(F)(F)P(=O)(O)O	plsY	inhibitor		200 µM		99%
COc1ccc(N2C(=O)N(c3c(C)cccc3Cl)Cc3cnc(Nc4ccc(C5CCN(C)CC5)cc4OC)nc32)nc1	BDNF/NT-3 growth factors receptor (NTRK2, Homo sapiens, UniProt Q16620)	kinase activity, inhibitor		0.5 µM, kinase TRKB		-0.05%
